# Measurements from different studies.
# Numbered parts are unrelated; each lists some results of a single study. Changes are numbered by the printed parent chain.
# Chain of UniProt P53779 (whole entry, looked up): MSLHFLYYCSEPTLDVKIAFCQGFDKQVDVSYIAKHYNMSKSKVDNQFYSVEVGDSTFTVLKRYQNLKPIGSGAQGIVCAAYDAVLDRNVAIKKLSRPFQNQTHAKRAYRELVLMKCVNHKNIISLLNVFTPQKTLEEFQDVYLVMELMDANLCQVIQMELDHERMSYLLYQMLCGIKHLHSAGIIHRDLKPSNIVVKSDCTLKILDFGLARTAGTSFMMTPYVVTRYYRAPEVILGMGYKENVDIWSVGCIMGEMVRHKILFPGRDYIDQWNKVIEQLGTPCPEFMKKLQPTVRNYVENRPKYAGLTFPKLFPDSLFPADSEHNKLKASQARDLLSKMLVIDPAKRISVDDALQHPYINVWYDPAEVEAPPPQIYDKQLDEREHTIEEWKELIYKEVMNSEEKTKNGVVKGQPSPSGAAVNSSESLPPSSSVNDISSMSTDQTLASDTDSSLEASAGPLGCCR

# Study 1 — target: CCND1, cyclin fold, Cln2 fusion (human); method: yeast growth competition, sequencing; matrix: yeast; notes: weak parent motif; relative to: not given; reading: higher = stronger binding
# Starting sequence: viral docking peptide; TSVRRALFTGGSD; partner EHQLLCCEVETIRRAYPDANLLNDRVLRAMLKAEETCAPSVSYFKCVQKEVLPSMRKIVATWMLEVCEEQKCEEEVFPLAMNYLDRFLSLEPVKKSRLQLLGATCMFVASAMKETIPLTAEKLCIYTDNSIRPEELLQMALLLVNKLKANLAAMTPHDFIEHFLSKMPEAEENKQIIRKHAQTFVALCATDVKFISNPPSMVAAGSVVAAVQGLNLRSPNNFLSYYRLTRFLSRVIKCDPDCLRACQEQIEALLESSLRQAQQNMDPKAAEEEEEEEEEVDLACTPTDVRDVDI
Substitution,normalised enrichment score
TSVIRALFTGGSD [R4I],0.87
TSVRRAMFTGGSD [L7M],0.184
TRVRRALFTGGSD [S2R],0.428
TSVRRALFTAGSD [G10A],0.589
TSVRRACFTGGSD [L7C],0.0765
TSVRRADFTGGSD [L7D],0.0746
TSVRRALHTGGSD [F8H],-0.113
TSVRRAPFTGGSD [L7P],-0.0284

# Study 2 — target: vanadate, free oxyanion; method: microfluidic competitive inhibition; matrix: in vitro, cell-free expressed; tested at: not given; reading: lower = stronger binding
# Notes: derived from inhibition constants, unchanged parent 676 nM
# Starting sequence: PafA, mature enzyme, eGFP fusion (Elizabethkingia meningoseptica, UniProt Q9KJX5); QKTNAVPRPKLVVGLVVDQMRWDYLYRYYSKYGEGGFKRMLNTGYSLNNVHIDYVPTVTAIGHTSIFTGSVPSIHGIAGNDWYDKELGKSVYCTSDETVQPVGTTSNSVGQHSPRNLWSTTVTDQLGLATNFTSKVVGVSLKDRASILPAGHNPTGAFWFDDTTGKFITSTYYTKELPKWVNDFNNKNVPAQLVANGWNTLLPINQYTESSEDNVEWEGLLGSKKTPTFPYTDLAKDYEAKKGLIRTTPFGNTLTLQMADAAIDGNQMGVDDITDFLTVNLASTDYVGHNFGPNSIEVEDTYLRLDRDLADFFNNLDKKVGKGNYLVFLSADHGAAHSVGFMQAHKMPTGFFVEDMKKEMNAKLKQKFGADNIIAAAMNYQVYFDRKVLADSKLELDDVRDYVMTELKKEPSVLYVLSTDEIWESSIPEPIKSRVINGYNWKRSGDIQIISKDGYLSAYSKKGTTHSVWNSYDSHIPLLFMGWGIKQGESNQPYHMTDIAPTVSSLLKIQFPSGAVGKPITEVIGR
Substitution,oxyanion analog dissociation constant
L414V,698 nM
E424V,899 nM
A240V,692 nM
E97G,759 nM
P114V,645 nM
L87G,542 nM
H51V,664 nM
E218G,706 nM

# Study 3 — effect on: binding; method: phage display NGS; form: peptide; tested at: concentration not given; relative to: beads alone
# Target: UDP-N-acetylglucosamine--peptide N-acetylglucosaminyltransferase 110 kDa subunit (OGT, Homo sapiens, UniProt O15294)
# Residues (O15294 1-1046): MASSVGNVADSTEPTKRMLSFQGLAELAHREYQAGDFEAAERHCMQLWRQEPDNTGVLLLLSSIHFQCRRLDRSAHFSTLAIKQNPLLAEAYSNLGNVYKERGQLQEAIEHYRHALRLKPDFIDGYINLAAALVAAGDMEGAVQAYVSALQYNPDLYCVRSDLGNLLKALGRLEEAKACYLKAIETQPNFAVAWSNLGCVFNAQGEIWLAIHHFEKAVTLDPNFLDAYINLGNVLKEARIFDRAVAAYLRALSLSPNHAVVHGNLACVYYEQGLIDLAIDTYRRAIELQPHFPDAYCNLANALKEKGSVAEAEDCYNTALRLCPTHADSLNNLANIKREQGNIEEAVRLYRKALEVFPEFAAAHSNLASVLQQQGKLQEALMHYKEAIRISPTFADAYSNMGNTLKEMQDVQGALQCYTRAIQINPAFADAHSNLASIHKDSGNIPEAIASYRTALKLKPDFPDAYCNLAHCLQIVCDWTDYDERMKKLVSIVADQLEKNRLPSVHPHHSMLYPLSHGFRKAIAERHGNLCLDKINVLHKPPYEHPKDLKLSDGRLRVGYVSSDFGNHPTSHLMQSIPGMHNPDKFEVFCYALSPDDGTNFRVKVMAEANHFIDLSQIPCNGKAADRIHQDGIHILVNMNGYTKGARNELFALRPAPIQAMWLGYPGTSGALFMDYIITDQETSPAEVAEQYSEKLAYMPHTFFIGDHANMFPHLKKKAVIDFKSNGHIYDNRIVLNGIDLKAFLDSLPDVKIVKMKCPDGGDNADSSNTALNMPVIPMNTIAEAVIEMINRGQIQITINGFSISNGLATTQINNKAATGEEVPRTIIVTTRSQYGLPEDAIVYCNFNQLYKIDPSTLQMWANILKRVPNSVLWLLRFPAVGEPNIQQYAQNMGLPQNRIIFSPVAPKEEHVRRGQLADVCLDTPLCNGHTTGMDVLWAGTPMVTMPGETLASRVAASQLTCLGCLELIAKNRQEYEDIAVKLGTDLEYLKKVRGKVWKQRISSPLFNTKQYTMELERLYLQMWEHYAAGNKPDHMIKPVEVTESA
Molecule,enrichment fold change
TAPFYPPAYFI,0.689
TAPFYPPAYAI,0.589
TAPFYPPAYDI,0.464

# Other studies, line by line
SMILES,target,test,setting,scale,endpoint,value
N/C(=N\[N+](=O)[O-])N/N=C\c1ccc(-c2cccc([N+](=O)[O-])c2)o1,"Mitogen-activated protein kinase 10 (MAPK10, Homo sapiens, UniProt P53779)","enzyme activity, inhibitor",0.5 µM,relative to: control,remaining activity,87%
